{"data": "Published values of several laboratories", "note": "Each numbered part is a random draw from the data of one study; scales do not carry over between parts."}
{"data": "Series 1", "target": "RING finger protein unkempt homolog, zinc fingers 1-6, GST-SBP tag (UNK, Homo sapiens, UniProt Q9C0B0, residues 30-357)", "technique": "RNA Bind-n-Seq", "molecule type": "RNA", "medium": "in vitro", "tested at": "not given", "notes": "RNA with constant flanks, human and mouse sites, ends assumed", "baseline": "input RNA pool", "direction": "higher = stronger binding", "UniProt Q9C0B0, sequence (30-357, looked up)": "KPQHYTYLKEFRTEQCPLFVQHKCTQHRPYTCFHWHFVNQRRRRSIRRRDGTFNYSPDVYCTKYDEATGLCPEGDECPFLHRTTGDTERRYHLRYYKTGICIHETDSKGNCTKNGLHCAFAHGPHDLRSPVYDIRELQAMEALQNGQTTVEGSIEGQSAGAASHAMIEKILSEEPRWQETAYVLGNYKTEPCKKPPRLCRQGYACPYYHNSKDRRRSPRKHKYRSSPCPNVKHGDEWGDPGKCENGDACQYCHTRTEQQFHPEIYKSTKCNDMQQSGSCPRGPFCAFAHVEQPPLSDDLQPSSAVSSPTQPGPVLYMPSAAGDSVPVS"}
{"Sequence": "GGGAGUUCUACAGUCCGACGAUCGACAUUAUCAAGUUUCUGCAGGAACACGGUUCAGAUUCGUUUCUUGCAGAACAUAAAUUAUUAGGAAACAUUAAAAAUGUGGCCAAGACAGCUAACAAGGACCACUUGGUUACAGCCUAUCAACAGAGGAUUGAGCAUCA", "bound/input enrichment [ratio]": 3.47}
{"Sequence": "GGGAGUUCUACAGUCCGACGAUCUCUUACACGAUCCAGUCUGAGCUGGGAGACUAUGACCCAGAACUGCACGGCAUGGAUUAUGUUAGUGAUUUUAAACUGGCUCCAAAUCAGACCAAGGAACUUGAAGAAAAGGUCAUGGAACAACAGAGGAUUGAGCAUCA", "bound/input enrichment [ratio]": 0.171}
{"Sequence": "GGGAGUUCUACAGUCCGACGAUCCUGGCUCACCCUGAUGCGCCGAUGUCGCAGAUCUAUGGGGCGCCACACCUCCUGAGAUUAUUCGUGAGAAUUGGGGCAAUGUUGGCCUAUACGCCCCUUGAUGAGAAAAGCCUGGCAUUACAACAGAGGAUUGAGCAUCA", "bound/input enrichment [ratio]": 0.116}
{"data": "Series 2", "target": "Sal-like protein 4, full length isoform A (SALL4, Homo sapiens, UniProt Q9UJQ4, residues 1-1053)", "technique": "universal PBM", "molecule type": "double-stranded DNA, one strand shown", "medium": "in vitro", "tested at": "600 nM", "notes": "8-mer, flanks averaged, mean of replicates", "direction": "higher = stronger binding", "UniProt Q9UJQ4, sequence (whole entry, looked up)": "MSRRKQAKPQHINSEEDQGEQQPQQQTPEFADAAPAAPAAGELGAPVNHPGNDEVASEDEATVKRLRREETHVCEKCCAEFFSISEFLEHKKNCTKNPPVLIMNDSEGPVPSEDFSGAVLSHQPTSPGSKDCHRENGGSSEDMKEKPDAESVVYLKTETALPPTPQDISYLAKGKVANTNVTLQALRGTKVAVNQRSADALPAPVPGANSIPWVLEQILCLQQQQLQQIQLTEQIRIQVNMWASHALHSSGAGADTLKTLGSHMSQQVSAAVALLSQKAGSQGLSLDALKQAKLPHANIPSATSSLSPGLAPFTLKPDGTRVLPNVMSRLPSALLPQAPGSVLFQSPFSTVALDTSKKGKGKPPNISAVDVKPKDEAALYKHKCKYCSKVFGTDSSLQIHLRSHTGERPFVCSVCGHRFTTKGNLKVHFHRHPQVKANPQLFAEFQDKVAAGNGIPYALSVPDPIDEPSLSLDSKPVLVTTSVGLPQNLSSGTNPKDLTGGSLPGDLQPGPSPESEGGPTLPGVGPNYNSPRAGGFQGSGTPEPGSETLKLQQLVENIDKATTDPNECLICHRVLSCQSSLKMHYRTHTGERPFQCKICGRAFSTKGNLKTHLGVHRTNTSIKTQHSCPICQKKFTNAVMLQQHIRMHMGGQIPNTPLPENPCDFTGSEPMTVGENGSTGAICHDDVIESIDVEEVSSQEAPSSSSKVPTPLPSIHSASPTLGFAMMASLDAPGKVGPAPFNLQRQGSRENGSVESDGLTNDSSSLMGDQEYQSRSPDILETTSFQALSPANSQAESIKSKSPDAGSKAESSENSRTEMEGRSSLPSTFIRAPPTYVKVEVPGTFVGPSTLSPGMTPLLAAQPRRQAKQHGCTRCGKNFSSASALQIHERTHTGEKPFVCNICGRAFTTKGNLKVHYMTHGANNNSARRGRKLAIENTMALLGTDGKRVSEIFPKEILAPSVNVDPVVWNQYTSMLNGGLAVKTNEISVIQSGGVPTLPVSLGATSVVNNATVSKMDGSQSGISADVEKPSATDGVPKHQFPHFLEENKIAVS"}
{"Sequence": "AGGAAAAT", "E-score": 0.166}
{"Sequence": "GAACGTAA", "E-score": 0.0375}
{"Sequence": "AATCCCCT", "E-score": -0.146}
{"Sequence": "ATCAAGTG", "E-score": 0.0864}
{"Sequence": "AAGTTCCT", "E-score": -0.131}
{"data": "Series 3", "target": "Histone acetyltransferase KAT6A, both winged helices, GST fusion (KAT6A, Homo sapiens, UniProt Q92794, residues 1-181)", "technique": "protein binding microarray", "molecule type": "double-stranded DNA, one strand shown", "medium": "in vitro", "tested at": "not given", "notes": "8-mer, flanks averaged, mean of 2 arrays, mostly near background", "baseline": "not given", "direction": "higher = stronger binding", "Construct (chain)": "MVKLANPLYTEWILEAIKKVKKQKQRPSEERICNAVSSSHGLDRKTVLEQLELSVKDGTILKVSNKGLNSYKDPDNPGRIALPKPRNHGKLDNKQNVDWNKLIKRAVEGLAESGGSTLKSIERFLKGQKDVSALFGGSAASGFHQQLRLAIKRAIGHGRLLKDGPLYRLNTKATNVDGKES"}
{"Sequence": "GAGCTACA", "E-score": -0.126}
{"Sequence": "TCGAAGCA", "E-score": -0.183}
{"Sequence": "AAAAAGTG", "E-score": -0.0799}
{"Sequence": "ACCGGTCG", "E-score": 0.155}
{"Sequence": "CTAGCATC", "E-score": -0.139}
{"Sequence": "GAAGAGTC", "E-score": -0.0866}
{"Sequence": "ATTGATGG", "E-score": -0.172}
{"data": "Further values, each from its own experiment"}
{"Substance": "PhoQ, residues 284 288 289 292 302 303 WVSSAF", "target": "PhoP, residues 12 14 15 18 19 VHSCL (Escherichia coli, UniProt P23836)", "assay": "Sort-seq, item: YFP reporter", "system": "E. coli", "setting": "PhoQ-PhoP variant library, together with: 10 µM Mg2+", "scale": "baseline: high Mg2+ state, higher = stronger signaling", "quantity": "fold induction", "result": 5.76}
{"note": "For quick reference, copied from above (series 3):"}
{"Sequence": "AAAAAGTG", "E-score": -0.0799}
